# Measured values from different studies.
# Parts stem from different laboratories: compare values within a part only.

# Set 1
# Target: Interferon regulatory factor 5, full length, phosphomimetic (IRF5, Homo sapiens, UniProt Q13568-2, residues 1-514, K96S/S451D/S453D/S456D/S462D)
# Technique: protein-binding microarray
# Form: double-stranded DNA, one strand shown
# Sample: in vitro
# Concentration: 250 nM
# Setting: 60-bp whole probe
# Added: salmon DNA 0.4 mg/ml
# Relative to: random background probes
# Direction: higher = stronger binding
# All sequences stand within: GCCTAGCAC … GTCTTGATTCGCTTGACGCTGCTG
Oligonucleotide,log fluorescence [z-score]
TCATCTTTCCTTACTTCACTGTGCTAG,1.23
GAAGGTATCGGTATCGGGACGTGCTAG,5.86
GACGATATCAGTAACGAGACGTGCTAG,0.951
TTAGGACGGCTTATCCTTTAGTGCTAG,-0.641
GACTGTATCGACACTGGGGACGTGCTA,1.78
TTAGGTATCGTTTTCGGTTAGTGCTAG,9.47
GTTCTTATCCTTCCCCTCTAGTGCTAG,0.343
TTAGAACTGGGGTATTGATTAGTGCTA,0.05
CACGGTATCCTTCTCCTGACGTGCTAG,-0.125
GACGATATCGGGTTGCGAGACGTGCTA,1.76
TTACGACTGGACTATCGGTTAGTGCTA,6.31
TCAAGTTTCTCTTTCCTACTGTGCTAG,4.06
GACGATATCGGGGTTCGAGACGTGCTA,0.987

# Set 2
# Target: RING finger protein unkempt homolog, zinc fingers 1-6, SBP tag (UNK, Homo sapiens, UniProt Q9C0B0, residues 30-357)
# Chain of UniProt Q9C0B0 (30-357, looked up): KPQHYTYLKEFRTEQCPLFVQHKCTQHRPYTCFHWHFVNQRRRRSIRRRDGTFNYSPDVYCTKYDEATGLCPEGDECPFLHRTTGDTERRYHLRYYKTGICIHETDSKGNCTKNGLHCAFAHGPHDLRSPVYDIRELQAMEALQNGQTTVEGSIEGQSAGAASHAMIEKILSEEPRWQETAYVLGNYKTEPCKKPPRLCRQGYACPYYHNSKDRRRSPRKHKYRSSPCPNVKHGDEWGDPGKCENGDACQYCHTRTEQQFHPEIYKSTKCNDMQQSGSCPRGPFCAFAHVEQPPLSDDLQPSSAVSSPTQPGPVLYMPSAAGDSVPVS
# Technique: RNA Bind-n-Seq
# Form: RNA
# Sample: in vitro
# Concentration: 100 nM
# Setting: RNA with constant flanks, vertebrate orthologous sites, ends assumed
# Relative to: input RNA pool
# Direction: higher = stronger binding
Oligonucleotide,bound/input enrichment [ratio]
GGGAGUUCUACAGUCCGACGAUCACAAUAGCUUCUGCUUCACUAAGAGCGUAAAAAUAGUCCCACAAAUAUAAAACUCCUAAAGAGCUAUUUUUUAAAUAAAAAUGUUUAAAUUUUGUAAAUCACUUGAUGCCACAACACAACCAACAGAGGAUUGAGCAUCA,1.09
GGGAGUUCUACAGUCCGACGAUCGUCCCUCAGUGAUAGCAUGCCAUCUGUAGCAGACUCCCACUCAAGUCAUUUCUCUGAAUUUAGUUGUUCCGAUAUGGAAAGCAUGAAAACUUCUUGUAGCCAUGGUUCCAGUGAUUAUCACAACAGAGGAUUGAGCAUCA,0.621
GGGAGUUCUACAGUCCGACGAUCUGUUUUGUUUUGCCUAAGAGUUCGUAUUAAAGAUUGUCAAAGGAAGGAAGAGGGGAUACACUAGCAAUGGUCCCAGGUGCCUGGCCUCCAGCGCCCCAUUUGGGACAAUCCUGUCAGGGUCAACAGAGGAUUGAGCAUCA,0.442
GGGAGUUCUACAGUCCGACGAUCUGCCGGGCUGGCCCCAGUCCCACCUCUGUUUAUUCUGUACUACAACCUGUAAAUAACAUUUAGCAUUCCUAUUGUAACAAAAUUAAUUUUUAUGAAAUAAAUUAUAUUUCCUAGUCUAAUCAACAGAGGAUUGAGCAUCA,1.43
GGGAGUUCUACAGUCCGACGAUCACGCUUUGACGUUAAGUUCACCGUGAACUCGUGACCCCAGGCACGAUGAGCGCACAAAAAAAAAACAACGUAGAAAGAUAUUCAAGAGUUCAGAUUGAAAAAAAACAAAAACACACAAAACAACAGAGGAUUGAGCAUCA,0.245
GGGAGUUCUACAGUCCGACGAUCGCAUCACGGGUUACUCUUGUUUCUGUAGCAGAUAGAAAAUUUUGCAACAAAUGUAUACAUCUCGUUGAGCUGAAUAUAUUUUUAUUAGCCUGUAAAUAAAUAUACUCUUCUUCAUUGCAGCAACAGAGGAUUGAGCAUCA,0.718

# Set 3
# Target: Prothrombin, mature alpha-thrombin (F2, Homo sapiens, UniProt P00734)
# Technique: aptamer microarray, sandwich
# Form: DNA with 2'F-ANA
# Sample: in vitro
# Concentration: 200 nM
# Setting: whole 15-mer aptamer, many near background
# Added: Cy3 exosite-II aptamer, 400 nM
# Direction: higher = stronger binding
# Oligonucleotide: GGTTGGTGTGGTTGG
Modification,mean fluorescence intensity [a.u.]
2'F-ANA at 1 2 4 5 7 8 9 11 14,43.9
2'F-ANA at 1 3 4 5 8 9 11 12 13 14 15,53.8
2'F-ANA at 1 4 5 6 7 8 9 10 12 13 14 15,50.5
2'F-ANA at 1 6 7 9 10 13 14 15,49.7
2'F-ANA at 2 6 7 9 12 13 14,126
2'F-ANA at 2 6 7 9 11 13 15,226
2'F-ANA at 4 5 8 9 10 14,46.1
2'F-ANA at 5 6 8 9 12 13,102
2'F-ANA at 1 4 10 12 13 14 15,42.9
2'F-ANA at 3 5 6 7 8,146

# Other studies, line by line
Substance,target,test,test system,conditions,scale,measurement,result
"PhoQ, residues 284 288 289 292 302 303 AMDMFI","PhoP, residues 12 14 15 18 19 LHATL (Escherichia coli, UniProt P23836)","Sort-seq, refers to: YFP reporter",E. coli,"PhoQ-PhoP variant library, added: 10 µM Mg2+","relative to: high Mg2+ state, higher = stronger signaling",fold induction,0.625

# For quick reference, copied from above (set 2):
Oligonucleotide,bound/input enrichment [ratio]
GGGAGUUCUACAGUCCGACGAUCACGCUUUGACGUUAAGUUCACCGUGAACUCGUGACCCCAGGCACGAUGAGCGCACAAAAAAAAAACAACGUAGAAAGAUAUUCAAGAGUUCAGAUUGAAAAAAAACAAAAACACACAAAACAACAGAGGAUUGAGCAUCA,0.245
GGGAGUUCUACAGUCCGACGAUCGCAUCACGGGUUACUCUUGUUUCUGUAGCAGAUAGAAAAUUUUGCAACAAAUGUAUACAUCUCGUUGAGCUGAAUAUAUUUUUAUUAGCCUGUAAAUAAAUAUACUCUUCUUCAUUGCAGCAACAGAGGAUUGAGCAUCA,0.718
